Published values collected from several papers.
Each numbered part is a random draw from the data of one study; scales do not carry over between parts.

Block 1 — technique: aptamer microarray, sandwich; form: DNA with 2'F-ANA; medium: in vitro; tested at: 200 nM; together with: Cy3 exosite-II aptamer, 400 nM; direction: higher = stronger binding; quantity: mean fluorescence intensity; strand: GGTTGGTGTGGTTGG
Target: Prothrombin, mature alpha-thrombin (F2, Homo sapiens, UniProt P00734)
Notes: whole 15-mer aptamer, many near background
Modification = 2'F-ANA at 2 3 4 6 7 8 10 14; value = 175 a.u.
Modification = 2'F-ANA at 4 6 7 8 10 13 14; value = 57.4 a.u.
Modification = 2'F-ANA at 1 3 4 7 8 14; value = 93.5 a.u.
Modification = 2'F-ANA at 1 2 5 6 7 9 11 13; value = 55.2 a.u.
Modification = 2'F-ANA at 1 3 4 6 8 10 12 13 14; value = 85.9 a.u.

Block 2 — technique: RNA Bind-n-Seq; form: RNA; medium: in vitro; tested at: 20 nM; notes: 6-mer, flanks averaged, single round; together with: 150 mM KCl; relative to: input library; direction: higher = stronger binding; quantity: 6-mer enrichment (R)
Target: TAR DNA-binding protein 43, full length, His tag (TARDBP, Homo sapiens, UniProt Q13148, residues 1-414)
Strand = CGCUGU; value = 0.764
Strand = AUCUUU; value = 0.603
Strand = UCUUUG; value = 0.63
Strand = ACCAUA; value = 0.623
Strand = GGUCCU; value = 0.862

Block 3 — technique: RNA Bind-n-Seq; form: RNA; medium: in vitro; tested at: 1 µM; notes: whole 134-nt RNA, ends assumed; together with: 150 mM KCl; relative to: input library; direction: higher = stronger binding; quantity: log2 enrichment
Target: Ras GTPase-activating protein-binding protein 1, RRM domain (G3BP1, Homo sapiens, UniProt Q13283)
Chain of UniProt Q13283 (whole entry, looked up): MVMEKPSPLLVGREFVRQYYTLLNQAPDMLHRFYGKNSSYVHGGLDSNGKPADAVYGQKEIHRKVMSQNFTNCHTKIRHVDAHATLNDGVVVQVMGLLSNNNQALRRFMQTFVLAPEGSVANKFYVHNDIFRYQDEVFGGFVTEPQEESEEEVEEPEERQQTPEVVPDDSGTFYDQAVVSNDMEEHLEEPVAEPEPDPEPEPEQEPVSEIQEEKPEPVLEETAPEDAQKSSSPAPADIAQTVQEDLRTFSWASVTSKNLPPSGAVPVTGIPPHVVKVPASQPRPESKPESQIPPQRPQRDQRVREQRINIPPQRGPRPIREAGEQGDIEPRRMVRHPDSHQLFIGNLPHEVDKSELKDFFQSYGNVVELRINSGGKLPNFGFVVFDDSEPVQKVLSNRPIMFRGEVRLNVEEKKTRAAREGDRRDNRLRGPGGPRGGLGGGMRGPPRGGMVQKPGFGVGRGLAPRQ
All sequences stand within: GGGAGUUCUACAGUCCGACGAUC … UGGAAUUCUCGGGUGUCAAGG
Strand = UGAUCUCCAGGAUGACAUGCGAAGAUGCCAAAUCAUCCGAGACAUGAUUGGACCGGAAAAGACUUUGGUAAAUAUCCUCUCACACCACUA; value = -0.0374
Strand = AAGUCCUGUGCUACACAUCGUAUGUACCGAAUCGGGGCCCGGGGCCCGGGCCCGGGGAAAGUAUUAUGUUACGCCGUUCGGAUCUGCACU; value = -0.958
Strand = CCUCAAGUCCUGUGCUACACAUCGUAUGUACCGAAUCGGUUGGUUGGGGUUGGAAAGUAUUAUGUUACGCCGUUCGGAUCUGCACUUCCA; value = -0.253
Strand = UCAAGUCCUGUGCUACACAUCGUAUGUACCGAAUCGGAAAGGAAAGGGAAAGGGGAAAGUAUUAUGUUACGCCGUUCGGAUCUGCACUUC; value = -0.159
Strand = UGCGGGCGGCUGAGACGCCGCCUGCCUGGCACCUAGGAGCGCAGCGGAGCCCCGACACCGCCGCCGCCGCCAUGGAGUCCGAGACCGAAC; value = -0.429
Strand = UGGGAGGUGGAUUUUGUUUAUUUUUUUAGCUCAUUUCCAGGGGUGGGAAUUUUUUUUUAAUAUGUGUCAUGAAUAGAGUUGUUUUUGAAA; value = 0.887

Mixed results
Molecule = PhoQ, residues 284 288 289 292 302 303 HSYLQF; target = PhoP, residues 12 14 15 18 19 TPLRH (Escherichia coli, UniProt P23836); assay = Sort-seq, refers to: YFP reporter; test system = E. coli; conditions = PhoQ-PhoP variant library, together with: 10 µM Mg2+; scale = relative to: high Mg2+ state, higher = stronger signaling; quantity = fold induction; value = 0.712

For quick reference, copied from above (block 1):
Modification = 2'F-ANA at 2 3 4 6 7 8 10 14; value = 175 a.u.
Modification = 2'F-ANA at 4 6 7 8 10 13 14; value = 57.4 a.u.
